Published values pooled from the literature.
Every numbered part comes from another study and shows a few of its results, in no order.

Block 1
Target: Sal-like protein 4, full length isoform A (SALL4, Homo sapiens, UniProt Q9UJQ4, residues 1-1053)
Sequence of UniProt Q9UJQ4 (whole entry, looked up): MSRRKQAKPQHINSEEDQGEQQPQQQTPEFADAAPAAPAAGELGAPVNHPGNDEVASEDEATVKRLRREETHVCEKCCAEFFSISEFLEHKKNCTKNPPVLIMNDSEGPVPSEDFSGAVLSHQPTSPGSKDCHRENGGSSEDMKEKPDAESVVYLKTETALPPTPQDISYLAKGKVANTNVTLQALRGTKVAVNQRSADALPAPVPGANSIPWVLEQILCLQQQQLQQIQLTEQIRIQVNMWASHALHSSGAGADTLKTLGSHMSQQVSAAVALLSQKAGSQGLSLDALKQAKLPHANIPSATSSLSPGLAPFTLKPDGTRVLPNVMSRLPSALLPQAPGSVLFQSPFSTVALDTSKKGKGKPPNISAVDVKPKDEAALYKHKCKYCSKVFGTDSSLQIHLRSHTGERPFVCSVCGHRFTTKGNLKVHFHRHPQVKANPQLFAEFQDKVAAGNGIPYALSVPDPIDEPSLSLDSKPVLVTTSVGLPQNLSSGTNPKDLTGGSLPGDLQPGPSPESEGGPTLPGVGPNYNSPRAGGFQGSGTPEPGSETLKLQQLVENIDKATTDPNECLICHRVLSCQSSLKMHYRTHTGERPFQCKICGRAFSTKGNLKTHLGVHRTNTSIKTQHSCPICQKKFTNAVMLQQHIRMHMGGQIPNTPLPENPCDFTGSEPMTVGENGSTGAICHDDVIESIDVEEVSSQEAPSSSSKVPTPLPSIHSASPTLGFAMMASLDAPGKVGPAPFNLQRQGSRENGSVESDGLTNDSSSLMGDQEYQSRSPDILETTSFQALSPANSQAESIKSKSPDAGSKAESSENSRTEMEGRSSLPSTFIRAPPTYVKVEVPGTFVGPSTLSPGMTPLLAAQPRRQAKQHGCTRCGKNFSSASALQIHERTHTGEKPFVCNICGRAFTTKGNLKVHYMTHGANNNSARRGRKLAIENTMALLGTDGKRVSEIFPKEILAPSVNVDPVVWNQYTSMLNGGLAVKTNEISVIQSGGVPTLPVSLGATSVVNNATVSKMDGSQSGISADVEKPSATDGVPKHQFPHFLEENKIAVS
Method: universal PBM
Molecule type: double-stranded DNA, one strand shown
Sample: in vitro
Concentration: 600 nM
Notes: 8-mer, flanks averaged, mean of replicates
Reading: higher = stronger binding
`GGATAGAC` gave an E-score of -0.0346.
The E-score of `ATAATTGG` is reported as 0.283.
`AACGATTG` has an E-score of 0.235.
The E-score of `AGGCGGGA` is reported as -0.2.
With `ACCGTGAC` the E-score was -0.18.
`CATTCGTA` gave an E-score of 0.193.
For `ACCCAGCA`, the E-score was -0.15.
The E-score of `AAATCCTT` is reported as 0.257.
`AATGTGTA` gave an E-score of 0.289.
The E-score of `AGCGGCCG` is reported as -0.287.
`ATACCCGA` has an E-score of -0.0511.
For `GACGAATC`, the E-score was -0.035.
The E-score of `TGTCCAAA` is reported as 0.143.
With `AACAGCGG` the E-score was -0.0762.
`CAAAACCC` has an E-score of 0.00703.
With `AGCCATTA` the E-score was 0.2.
With `AAAGGCTG` the E-score was -0.148.
With `CTGGAAAA` the E-score was 0.163.
`ACTTTGCT` has an E-score of 0.0132.
The E-score of `AATCCGCT` is reported as -0.0769.
`CGGCCTGA` has an E-score of -0.285.

Block 2
Target: Prothrombin, mature alpha-thrombin (F2, Homo sapiens, UniProt P00734)
Method: aptamer microarray, sandwich
Molecule type: DNA with 2'F-ANA
Sample: in vitro
Concentration: 200 nM
Notes: whole 15-mer aptamer, many near background
Together with: Cy3 exosite-II aptamer, 400 nM
Reading: higher = stronger binding
Sequence: GGTTGGTGTGGTTGG
Under “mean fluorescence intensity”, `2'F-ANA at 6 7 8 9 10 11 12 13 15` is recorded as 142 a.u.
`2'F-ANA at 6 8 9 12`: “mean fluorescence intensity” 863 a.u.
Under “mean fluorescence intensity”, `2'F-ANA at 1 6 7 8 9 10 13 14` is recorded as 53.6 a.u.
`2'F-ANA at 1 2 7 9 12 13 14 15` — result for “mean fluorescence intensity”: 79.3 a.u.
Under “mean fluorescence intensity”, `2'F-ANA at 1 2 4 6 9 10 13 15` is recorded as 48.7 a.u.
Under “mean fluorescence intensity”, `2'F-ANA at 1 2 3 6 7 10 13` is recorded as 62.2 a.u.
`2'F-ANA at 1 2 5 12 13`: “mean fluorescence intensity” 107 a.u.
`2'F-ANA at 1 2 3 4 5 6 9 10 14 15`: “mean fluorescence intensity” 57.8 a.u.
`2'F-ANA at 2 3 4 9 10 15`: “mean fluorescence intensity” 261 a.u.
For `2'F-ANA at 1 3 5 6 9 10 11 13 15`, “mean fluorescence intensity” read 47 a.u.
`2'F-ANA at 3 6 7 8 11 15`: “mean fluorescence intensity” 863 a.u.
`2'F-ANA at 2 3 4 5 6 12 15` — result for “mean fluorescence intensity”: 195 a.u.
`2'F-ANA at 3 5 6 10 15` — result for “mean fluorescence intensity”: 53.8 a.u.
For `2'F-ANA at 2 4 7 8 11 14 15`, “mean fluorescence intensity” read 152 a.u.

Block 3
Target: Interferon regulatory factor 7, full length, phosphomimetic (IRF7, Homo sapiens, UniProt Q92985, residues 1-503, S101K/S471D/S472D/S475D/S476D/S477D/S483D/S484D/S487D)
Sequence of UniProt Q92985 (whole entry, unmodified, looked up): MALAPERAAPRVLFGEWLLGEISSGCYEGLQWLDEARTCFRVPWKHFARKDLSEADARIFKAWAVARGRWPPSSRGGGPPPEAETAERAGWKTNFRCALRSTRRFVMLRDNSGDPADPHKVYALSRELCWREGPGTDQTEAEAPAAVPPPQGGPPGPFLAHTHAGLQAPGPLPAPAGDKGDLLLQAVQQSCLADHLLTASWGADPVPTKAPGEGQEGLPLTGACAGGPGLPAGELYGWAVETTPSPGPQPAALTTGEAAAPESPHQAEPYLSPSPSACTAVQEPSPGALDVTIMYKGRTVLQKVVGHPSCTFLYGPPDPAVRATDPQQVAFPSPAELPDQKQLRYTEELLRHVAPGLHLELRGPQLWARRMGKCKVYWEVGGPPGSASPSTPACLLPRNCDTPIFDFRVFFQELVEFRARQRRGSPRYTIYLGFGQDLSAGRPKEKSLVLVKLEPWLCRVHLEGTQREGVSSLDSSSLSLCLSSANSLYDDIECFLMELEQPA
Method: protein-binding microarray
Molecule type: double-stranded DNA, one strand shown
Sample: in vitro
Concentration: 250 nM
Notes: 60-bp whole probe
Together with: salmon DNA 0.4 mg/ml
Baseline: random background probes
Reading: higher = stronger binding
Constant ends, left off below: GCCTAGCAC … GTCTTGATTCGCTTGACGCTGCTG
`TCATGTTGCTGTTTGAGACTGTGCTAG` gave a log fluorescence of 0.749 z-score.
The log fluorescence of `TTTTTTCTACTTCTCTTTTGGTGCTAG` is reported as 4.57 z-score.
The log fluorescence of `TTTTCATTATTGTCTCCCCCAGTGCTA` is reported as 1.32 z-score.
`GACGGTTTCGACTAACGGGACGTGCTA` has a log fluorescence of 6.25 z-score.
The log fluorescence of `GACGGACTGAGGACTGGGGACGTGCTA` is reported as -0.706 z-score.
`GACGGTTTCGTTATCGGGACGTGCTAG` gave a log fluorescence of 11.4 z-score.
The log fluorescence of `GGGCTTTCCCAGCCTGGGGCTGTGCTA` is reported as 1.29 z-score.
With `AACGATTCCAGTTTCGAGACGTGCTAG` the log fluorescence was 5.17 z-score.
`TGAGATTTCCATTATTGCTTGTGCTAG` gave a log fluorescence of 0.0477 z-score.
`TCTCTGTTCTTTTCAGTCCCGTGCTAG` gave a log fluorescence of 1.55 z-score.
`TCATGTTTCTGTGTCACACTGTGCTAG` gave a log fluorescence of 1.39 z-score.
For `ATTTTTTTTTTCATCATTGCGTGCTAG`, the log fluorescence was 0.718 z-score.
`TTACGTATCCTTCTCCTTTAGTGCTAG` gave a log fluorescence of 0.748 z-score.

Block 4
Target: Ras GTPase-activating protein-binding protein 1, full length (G3BP1, Homo sapiens, UniProt Q13283)
Sequence of UniProt Q13283 (whole entry, looked up): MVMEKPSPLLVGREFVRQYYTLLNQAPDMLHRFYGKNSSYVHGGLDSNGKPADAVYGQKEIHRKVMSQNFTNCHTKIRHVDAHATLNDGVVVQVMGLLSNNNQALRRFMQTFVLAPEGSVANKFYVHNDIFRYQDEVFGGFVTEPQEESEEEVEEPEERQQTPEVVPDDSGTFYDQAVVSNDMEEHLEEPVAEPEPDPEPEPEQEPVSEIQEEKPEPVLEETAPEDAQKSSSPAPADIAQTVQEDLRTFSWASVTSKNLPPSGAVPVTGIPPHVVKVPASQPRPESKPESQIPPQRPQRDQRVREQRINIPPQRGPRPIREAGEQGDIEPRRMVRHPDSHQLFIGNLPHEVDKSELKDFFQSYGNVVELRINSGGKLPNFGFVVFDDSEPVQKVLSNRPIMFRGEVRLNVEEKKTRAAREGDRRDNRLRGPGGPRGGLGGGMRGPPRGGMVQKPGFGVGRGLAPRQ
Method: RNA Bind-n-Seq
Molecule type: RNA
Sample: in vitro
Concentration: 200 nM
Notes: whole 134-nt RNA, ends assumed
Together with: 150 mM KCl
Baseline: input library
Reading: higher = stronger binding
`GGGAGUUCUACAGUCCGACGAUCUCCUGUGCUACACAUCGUAUGUACCGAAUCAAAGUGUGUGUGUGAAAUGUGUGUGUGAAAAAAGUAUUAUGUUACGCCGUUCGGAUCUGCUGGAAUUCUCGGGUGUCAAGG` has a log2 enrichment of 0.0256.
`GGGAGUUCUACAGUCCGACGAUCACCAUGCAGGUGGGCAUCUUUGGGAAGUGGGGCAAGGGGGGGAUAGGGAGGGGGGUAACACUUUGGGAACAGGUGGUCGCAGGUCGUUUCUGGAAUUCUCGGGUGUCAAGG` gave a log2 enrichment of 1.58.
The log2 enrichment of `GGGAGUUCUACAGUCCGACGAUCAGUCCUGUGCUACACAUCGUAUGUACCGAAUCGGGGUUUUUGGGGUGGGGUUUGGGGAAAGUAUUAUGUUACGCCGUUCGGAUCUGCACUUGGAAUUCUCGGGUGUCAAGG` is reported as 0.38.
With `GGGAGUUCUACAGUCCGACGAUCCCUGUGCUACACAUCGUAUGUACCGAAUCGGGGUUUUUUUGGGGUUUUUGGGGUUUGGGGAAAGUAUUAUGUUACGCCGUUCGGAUCUGCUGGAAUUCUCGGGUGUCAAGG` the log2 enrichment was 0.148.
The log2 enrichment of `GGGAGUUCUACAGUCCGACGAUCUGGGAGGUGGAUUUUGUUUAUUUUUUUAGCUCAUUUCCAGGGGUGAGAAUUUUUUUUUAAUAUGUGUCAUGAAUAAAGUUGUUUUUGAAAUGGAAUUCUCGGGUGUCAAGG` is reported as -0.3.
`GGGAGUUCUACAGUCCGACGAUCUUAAGUGUAUUGGAGCCCCAAGUUCUCAAUUAUUUGAGCCUCCGGGCGACAGAGCAAGAAAAGGUGAGUGGAUAGCGCAGGCAUAUUGGUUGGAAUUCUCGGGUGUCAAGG` gave a log2 enrichment of 0.311.
`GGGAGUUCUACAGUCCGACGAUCCACAGACAACACGCACCCACACAGACACAGAGGGAAGGGGUUGGGAUGGGGACAGGGUAAACAGCAGGGCGGGGUAGGACCCCAGCCCCUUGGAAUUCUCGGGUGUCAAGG` has a log2 enrichment of 1.8.
The log2 enrichment of `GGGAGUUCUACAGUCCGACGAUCACCAGGCAGGUGGGCAUCUUUGGGAAGUGGGGCAAGGGGGGGAUAGGGAGGGGGGUAACACUUUGGGAACAGGUGGUCCCAGGUCGUUUCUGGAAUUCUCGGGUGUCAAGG` is reported as 1.32.
`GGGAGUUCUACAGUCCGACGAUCAGUCCUGUGCUACACAUCGUAUGUACCGAAUCGGGGUUUUGGGGUUUUGGUUUUGGGGAAAGUAUUAUGUUACGCCGUUCGGAUCUGCACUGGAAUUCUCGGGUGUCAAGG` gave a log2 enrichment of -0.246.

Block 5
Target: RNA binding protein fox-1 homolog 2, RRM domain, GST-SBP tag (RBFOX2, Homo sapiens, UniProt O43251-10, residues 100-194)
Method: RNA Bind-n-Seq
Molecule type: RNA
Sample: in vitro
Concentration: 365 nM
Notes: natural RNA segment, single round, ends assumed
Baseline: no-protein control
Reading: higher = stronger binding
Residues (chain): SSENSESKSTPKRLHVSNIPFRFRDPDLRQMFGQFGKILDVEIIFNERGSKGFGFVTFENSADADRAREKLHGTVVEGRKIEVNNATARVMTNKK
`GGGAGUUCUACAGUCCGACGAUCCGUGUCCAUCCUUACCAAAGGAUUGUGACCGCAGACCGAGGCGCCACCGGCAACUAACCUAUGACCUUCUGACCUCUGAACUCUUCACCCAAUGAUGACCUGACCAUGCCUGGAAUUCUCGGGUGCCAA`: “RBNS enrichment (R)” 0.187.
Under “RBNS enrichment (R)”, `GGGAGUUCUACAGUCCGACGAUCCCACCACCUCUGACCUCCUUGCCCCAGACCUGCUGGAGCAAGGGGACUGGAGCCUGUCCCAGAACAAGAGCGCCCUGGACUGCCCUCAUCAGCACCUAGACGUACCGCACUGGAAUUCUCGGGUGCCAA` is recorded as 0.318.
`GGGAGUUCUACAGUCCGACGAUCGAAAAGACUGCCAAACUAUUGGCUGACCAAGGUUUUUAAAUUCAGAAGAGCAAUUCUAAAUCUAAAGAAAUGUAUCAUUAAAGUAAUUACGUUACAUUGAAACCUGCUGCUGGAAUUCUCGGGUGCCAA`: “RBNS enrichment (R)” 0.402.
For `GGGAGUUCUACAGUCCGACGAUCUCUGUCCUCUUUAUGGAAUGUAGUCGACGGAUAUUGCUGCACCUCAUCAGGCCAUUACAUUGUCCAUGUUAAAAUUAUAAAAAUGAUCCUAGUUUUUCAUAGGAGUCUAGUGGAAUUCUCGGGUGCCAA`, “RBNS enrichment (R)” read 0.565.
`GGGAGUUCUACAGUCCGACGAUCAAAGCUUCUUAUAAUCAUUCUUAACUUCUUGGUAGCUAGAAAUUUAGAGUAGUUGAAAUCUUUAGGAAUGAACUUCUGAGGGCCAAAAAAUGUGACUGACGGGAACAAUUUGGAAUUCUCGGGUGCCAA` — result for “RBNS enrichment (R)”: 0.731.
For `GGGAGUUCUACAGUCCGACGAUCUAGUGGCACAUGCCUGUAAUCCCAGCUACCCGGGGAGGCUGAGGCAGGAGAAUUGCUUGAACUCAGAAGGCGGAGGCUGCAGUGAGCCGAGAUCGUGCCACUGCACUCCAUGGAAUUCUCGGGUGCCAA`, “RBNS enrichment (R)” read 0.613.
For `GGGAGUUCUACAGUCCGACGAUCUAACUGUGUCUUAGCAAUGUUGUAUAUAGUUCUUUUAAUAUUCAUAAGGUAUAUUUUUGAAUUUUGGUAUUUGUUGAGAUUGCAUAGAAGAAUAGUAGGAAAUCCAAUGAUGGAAUUCUCGGGUGCCAA`, “RBNS enrichment (R)” read 0.557.
`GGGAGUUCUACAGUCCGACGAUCUAAUCACUGUGACCUCUGAAUUUUCAAGUAUAGGCCAAAUGAGCCAAGUAACUUGGCUGUGAAAUGGCAGAAGGAACCUUCUCUCAAGCAGGUAGGUCAAGAGAUGGGCCUGGAAUUCUCGGGUGCCAA`: “RBNS enrichment (R)” 0.285.

Some of these lines once more (block 5):
`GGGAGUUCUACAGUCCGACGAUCCGUGUCCAUCCUUACCAAAGGAUUGUGACCGCAGACCGAGGCGCCACCGGCAACUAACCUAUGACCUUCUGACCUCUGAACUCUUCACCCAAUGAUGACCUGACCAUGCCUGGAAUUCUCGGGUGCCAA`: “RBNS enrichment (R)” 0.187.
Under “RBNS enrichment (R)”, `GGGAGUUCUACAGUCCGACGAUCCCACCACCUCUGACCUCCUUGCCCCAGACCUGCUGGAGCAAGGGGACUGGAGCCUGUCCCAGAACAAGAGCGCCCUGGACUGCCCUCAUCAGCACCUAGACGUACCGCACUGGAAUUCUCGGGUGCCAA` is recorded as 0.318.
`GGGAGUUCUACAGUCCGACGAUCGAAAAGACUGCCAAACUAUUGGCUGACCAAGGUUUUUAAAUUCAGAAGAGCAAUUCUAAAUCUAAAGAAAUGUAUCAUUAAAGUAAUUACGUUACAUUGAAACCUGCUGCUGGAAUUCUCGGGUGCCAA`: “RBNS enrichment (R)” 0.402.
For `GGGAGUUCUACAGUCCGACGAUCUCUGUCCUCUUUAUGGAAUGUAGUCGACGGAUAUUGCUGCACCUCAUCAGGCCAUUACAUUGUCCAUGUUAAAAUUAUAAAAAUGAUCCUAGUUUUUCAUAGGAGUCUAGUGGAAUUCUCGGGUGCCAA`, “RBNS enrichment (R)” read 0.565.
`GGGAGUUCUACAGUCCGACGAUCAAAGCUUCUUAUAAUCAUUCUUAACUUCUUGGUAGCUAGAAAUUUAGAGUAGUUGAAAUCUUUAGGAAUGAACUUCUGAGGGCCAAAAAAUGUGACUGACGGGAACAAUUUGGAAUUCUCGGGUGCCAA` — result for “RBNS enrichment (R)”: 0.731.
For `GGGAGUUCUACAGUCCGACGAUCUAGUGGCACAUGCCUGUAAUCCCAGCUACCCGGGGAGGCUGAGGCAGGAGAAUUGCUUGAACUCAGAAGGCGGAGGCUGCAGUGAGCCGAGAUCGUGCCACUGCACUCCAUGGAAUUCUCGGGUGCCAA`, “RBNS enrichment (R)” read 0.613.
For `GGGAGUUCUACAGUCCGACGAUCUAACUGUGUCUUAGCAAUGUUGUAUAUAGUUCUUUUAAUAUUCAUAAGGUAUAUUUUUGAAUUUUGGUAUUUGUUGAGAUUGCAUAGAAGAAUAGUAGGAAAUCCAAUGAUGGAAUUCUCGGGUGCCAA`, “RBNS enrichment (R)” read 0.557.
